Measured values collected from several papers.
Every numbered part comes from another study and shows a few of its results, in no order. Changes are numbered by the printed parent chain.

Series 1 — method: protein binding microarray; form: double-stranded DNA, one strand shown; medium: in vitro; tested at: not given; relative to: not given; reading: higher = stronger binding
Target: Histone acetyltransferase KAT6A, winged helix 1, GST fusion (KAT6A, Homo sapiens, UniProt Q92794, residues 1-85)
Setting: 8-mer, flanks averaged, mean of 2 arrays, mostly near background
Construct (chain): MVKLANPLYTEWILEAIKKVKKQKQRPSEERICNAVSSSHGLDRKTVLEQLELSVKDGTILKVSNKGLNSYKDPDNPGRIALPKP
Oligonucleotide | E-score
CTTAATTA | -0.173
AGCCAACC | -0.0285
GCTTGGCC | 0.0849
CCATAGGA | -0.19
CGTAATTA | 0.123
CCCCGGCC | 0.27
ATTAGAAG | -0.0924
CACACTGC | 0.0752

Series 2 — target: CEP164, C-terminal peptide (human); method: DHFR complementation, deep sequencing; medium: yeast; relative to: wild type; reading: higher = weaker binding
Setting: single substitutions, model-inferred values
Starting sequence: PDZK1, PDZ domain 2 (human); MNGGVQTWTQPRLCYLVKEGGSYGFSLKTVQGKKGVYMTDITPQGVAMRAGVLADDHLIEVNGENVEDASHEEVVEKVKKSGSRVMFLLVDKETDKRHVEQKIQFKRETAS; partner HNRVKVYRF
Change | binding free energy change
V5L | 0.00144 kcal/mol
K34V | 0.294 kcal/mol
Q104K | -0.17 kcal/mol
L27R | 1.02 kcal/mol
D95V | -0.106 kcal/mol
V75Q | 1.77 kcal/mol
I59F | 0.609 kcal/mol
A69N | -0.163 kcal/mol

Series 3 — method: aptamer microarray, sandwich; form: DNA with 2'F-ANA; medium: in vitro; tested at: 200 nM; added: Cy3 exosite-II aptamer, 400 nM; reading: higher = stronger binding; oligonucleotide: GGTTGGTGTGGTTGG
Target: Prothrombin, mature alpha-thrombin (F2, Homo sapiens, UniProt P00734)
Setting: whole 15-mer aptamer, many near background
Modification | mean fluorescence intensity [a.u.]
2'F-ANA at 6 7 8 11 13 | 496
2'F-ANA at 2 3 5 7 8 11 12 13 14 15 | 123
2'F-ANA at 1 2 4 6 7 10 11 12 14 | 62.9
2'F-ANA at 2 4 6 7 13 14 15 | 86.3
2'F-ANA at 1 3 8 11 13 14 | 98
2'F-ANA at 1 4 9 10 12 13 15 | 57.3
2'F-ANA at 1 6 9 11 12 13 14 15 | 63.4
2'F-ANA at 1 2 3 8 11 12 14 15 | 104

Further values, each from its own experiment
Starting sequence: PafA, mature enzyme, eGFP fusion (Elizabethkingia meningoseptica, UniProt Q9KJX5); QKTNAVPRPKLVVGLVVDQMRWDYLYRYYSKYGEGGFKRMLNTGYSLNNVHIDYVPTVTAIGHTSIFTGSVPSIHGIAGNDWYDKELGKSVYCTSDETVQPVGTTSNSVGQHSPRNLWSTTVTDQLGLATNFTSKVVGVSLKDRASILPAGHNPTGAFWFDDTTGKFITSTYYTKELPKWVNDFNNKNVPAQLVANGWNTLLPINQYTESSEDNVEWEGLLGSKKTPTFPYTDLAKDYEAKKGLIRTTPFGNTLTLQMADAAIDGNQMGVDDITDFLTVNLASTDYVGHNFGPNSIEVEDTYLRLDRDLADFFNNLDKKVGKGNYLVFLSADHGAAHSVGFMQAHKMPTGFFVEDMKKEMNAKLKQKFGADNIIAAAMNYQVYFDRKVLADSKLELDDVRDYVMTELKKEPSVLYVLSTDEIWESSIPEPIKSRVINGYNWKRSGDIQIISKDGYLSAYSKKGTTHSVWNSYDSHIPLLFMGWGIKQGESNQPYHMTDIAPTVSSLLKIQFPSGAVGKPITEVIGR
Change | target | assay | test system | setting | scale | measurement | result
G269A | tungstate, free oxyanion | microfluidic competitive inhibition | in vitro, cell-free expressed | not given, derived from inhibition constants, unchanged parent 2230 nM | lower = stronger binding | oxyanion analog dissociation constant | 1900 nM

Some of these lines once more (series 1):
Oligonucleotide | E-score
GCTTGGCC | 0.0849
CTTAATTA | -0.173
ATTAGAAG | -0.0924
CGTAATTA | 0.123
